Assay results of several laboratories.
Protocols differ between the studies behind these lines.
Cell line: SK-OV-3

Compound	effect on	technique	concentration	time	relative to	endpoint	value
CN[C@@H](C)C(=O)N[C@H]1CN(C(=O)Cc2ccccc2)CC[C@H]2CC[C@@H](C(=O)NCc3ccc(C(F)(F)F)cc3)N2C1=O	caspase-8, caspase-3, PARP cleavage	western blot	–	24 h	–	onset concentration	≥ 1 µM
Clc1cc2nc(-c3cc4cc5c(cc4nc3Cl)OCO5)[nH]c2cc1Cl	cell growth or viability	MTT	–	48 h	–	IC50	> 100 µM
CC(C)(C)c1cc2c(O)c(c1)Cc1cc(C(C)(C)C)cc(c1OCC(=O)Nc1cccc3cccnc13)Cc1cc(C(C)(C)C)cc(c1O)Cc1cc(C(C)(C)C)cc(c1OCC(=O)Nc1cccc3cccnc13)COC2	cell growth or viability	MTT	15 µM	72 h	–	inhibition	39%
COc1ccc(CC2COC(=O)C2Cc2ccc3c(c2)OCO3)cc1OC (mixture of isomers)	–	MTT	concentration not given	72 h	–	viability	decreased
CC(Cc1ccc(Cl)cc1)=C(c1ccc(Cl)cc1)c1ccc(OCCN(C)C)cc1	cell growth or viability	–	–	–	–	GI50	5.42 µM
CC(C)(C)c1cc2c(O)c(c1)Cc1cc(C(C)(C)C)cc(c1OCC(=O)NCc1ccncc1)Cc1cc(C(C)(C)C)cc(c1O)Cc1cc(C(C)(C)C)cc(c1OCC(=O)NCc1ccncc1)COC2	cell growth or viability	MTT	15 µM	72 h	–	inhibition	69%
Cc1ccc2nc(Cl)c(-c3nc4cc(Br)ccc4[nH]3)cc2c1	cell growth or viability	MTT	–	48 h	–	IC50	> 100 µM
CC(=O)c1cccc(NC2C(N)C(NC(=O)N(C)C)(C(C)O)C(O)C2(O)COC(=O)c2c(C)cccc2O)c1 (stereo not drawn)	cell growth or viability	–	–	–	–	EC50	0.007 µM
CC(=O)OC[C@H]1O[C@@H](Sc2sc(C(=O)c3ccc(C)cc3)c(N)c2-c2nc3ccccc3s2)[C@H](OC(C)=O)[C@@H](OC(C)=O)[C@@H]1OC(C)=O	–	SRB	10 µM	48 h	untreated	growth	89.9%
CC(C)(C)c1cc2c(O)c(c1)Cc1cc(C(C)(C)C)cc(c1OCC(=O)NCc1cccnc1)Cc1cc(C(C)(C)C)cc(c1O)Cc1cc(C(C)(C)C)cc(c1OCC(=O)NCc1cccnc1)COC2	cell growth or viability	MTT	15 µM	72 h	–	inhibition	83%
Cc1ccc2nc(Cl)c(-c3nc4cc(Cl)ccc4[nH]3)cc2c1	cell growth or viability	MTT	–	48 h	–	IC50	> 100 µM
CCC(=C(c1ccc(Cl)cc1)c1ccc(OCCCN(C)C)cc1)c1ccc(OC)cc1	cell growth or viability	–	–	–	–	GI50	10 µM
COc1ccc2nc(Cl)c(-c3nc4cc(Br)ccc4[nH]3)cc2c1	cell growth or viability	MTT	–	48 h	–	IC50	32.7 µM
CC(=O)OC[C@H]1O[C@@H](Sc2sc(C(=O)c3ccc(Br)cc3)c(N)c2-c2nc3ccccc3s2)[C@H](OC(C)=O)[C@@H](OC(C)=O)[C@@H]1OC(C)=O	–	SRB	10 µM	48 h	untreated	growth	96.6%
CC(C)(C)c1cc2c(O)c(c1)Cc1cc(C(C)(C)C)cc(c1OCC(=O)Nc1cccc3ncccc13)Cc1cc(C(C)(C)C)cc(c1O)Cc1cc(C(C)(C)C)cc(c1OCC(=O)Nc1cccc3ncccc13)COC2	cell growth or viability	MTT	15 µM	72 h	–	inhibition	50%
CC/C=C\C/C=C\C/C=C\C/C=C\C/C=C\C/C=C\CCC(=O)Nc1ccn(C2OC(CO)C(O)C2(F)F)c(=O)n1 (stereo not drawn)	cell growth or viability	SRB	–	–	–	GI50	0.11 µM
Cc1cccc(O)c1C(=O)OCC1(O)C(Nc2cccc3ccccc23)C(N)C(NC(=O)N(C)C)(C(C)O)C1(C)O (stereo not drawn)	cell growth or viability	–	–	–	–	EC50	2.44 µM
Cc1ccc2nc(Cl)c(-c3nc4cc(C)c(C)cc4[nH]3)cc2c1	cell growth or viability	MTT	–	48 h	–	IC50	> 100 µM
C=C(CC)C(=O)c1ccc(OCC(=O)NCCNC(=O)COc2ccc(C(=O)C(=C)CC)c(Cl)c2Cl)c(Cl)c1Cl	cell growth	CCK-8	–	72 h	–	IC10	~1.2 µM
COc1ccc2nc(Cl)c(-c3nc4cc(Cl)c(Cl)cc4[nH]3)cc2c1	cell growth or viability	MTT	–	48 h	–	IC50	17.9 µM
CC(C)(C)c1cc2c(O)c(c1)Cc1cc(C(C)(C)C)cc(c1OCC(=O)Nc1cncc3ccccc13)Cc1cc(C(C)(C)C)cc(c1O)Cc1cc(C(C)(C)C)cc(c1OCC(=O)Nc1cncc3ccccc13)COC2	cell growth or viability	MTT	15 µM	72 h	–	inhibition	75%

A few entries again:
Compound	effect on	technique	concentration	time	relative to	endpoint	value
CC(C)(C)c1cc2c(O)c(c1)Cc1cc(C(C)(C)C)cc(c1OCC(=O)Nc1cccc3cccnc13)Cc1cc(C(C)(C)C)cc(c1O)Cc1cc(C(C)(C)C)cc(c1OCC(=O)Nc1cccc3cccnc13)COC2	cell growth or viability	MTT	15 µM	72 h	–	inhibition	39%
COc1ccc(CC2COC(=O)C2Cc2ccc3c(c2)OCO3)cc1OC (mixture of isomers)	–	MTT	concentration not given	72 h	–	viability	decreased
CC(Cc1ccc(Cl)cc1)=C(c1ccc(Cl)cc1)c1ccc(OCCN(C)C)cc1	cell growth or viability	–	–	–	–	GI50	5.42 µM
